Measured values of several laboratories.
Every numbered part comes from another study and shows a few of its results, in no order. Changes are numbered by the printed parent chain.

Set 1 — method: RNA Bind-n-Seq; form: RNA; medium: in vitro; tested at: 365 nM; baseline: no-protein control; direction: higher = stronger binding
Target: RNA binding protein fox-1 homolog 2, RRM domain, GST-SBP tag (RBFOX2, Homo sapiens, UniProt O43251-10, residues 100-194)
Setting: natural RNA segment, single round, ends assumed
Residues (chain): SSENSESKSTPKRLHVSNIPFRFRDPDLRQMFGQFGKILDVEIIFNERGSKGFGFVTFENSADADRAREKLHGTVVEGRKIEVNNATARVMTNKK
Strand	RBNS enrichment (R)
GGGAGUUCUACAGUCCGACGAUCAGUUUAUUGUUAUUCACAAAUGCAAAUAGGUUUUCAAACUACAGACAGUUUUGAAAGACAUUAAUUCUCAUUUUCUUCUAGUCAGGAGUAAUACAAGCAAACAAGUGUCCUGGAAUUCUCGGGUGCCAA	0.328
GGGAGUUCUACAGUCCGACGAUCAUUUUUCUUCGCUGUUACGAAUUUACAGCAGCAUUUGUACAUGUAAAAUUAAAGGCUAUUUUCUGGUCUGGUUUGGUAUGUCUAGAGUUCUUCAGUUGAAGCCAAGGCACUGGAAUUCUCGGGUGCCAA	1.38
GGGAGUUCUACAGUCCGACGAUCCAUUACUGUGGGUGGGGUUCCCCUGGGCCAAACAGUGAUUUGUCUCCCUCAAUGUGUACACCGCUCCGCUCCCACCACCGCUACCACAAGGACCCCCGGGGCUGCAGCCUUGGAAUUCUCGGGUGCCAA	0.406
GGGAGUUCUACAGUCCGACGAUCGCCUUCUUAGGCUCUGUCGUGUGACUUUUCAGAUUAUAAAUGCCACAGCACGUGCUGUUUGAGAAGACGUGUUUUUGUUCUUAGUCUGUGUAUACAGUUCUCAGGGGUGGUGGAAUUCUCGGGUGCCAA	0.667
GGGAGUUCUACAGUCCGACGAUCGGUAUUACCAGUAAAUUGGUUGUAUAUACAAUAAAAUUGCACCCUUUUUUUAAACAAAACAAACUAAGCAAUAGUUUGGGCAGUUCUAGUUGUUUUUAGUGAGCAUGUUGUGGAAUUCUCGGGUGCCAA	7.98
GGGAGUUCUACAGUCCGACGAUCUAUUAGAAUGCUGACCUUUCAUAUGGAUUAUUGUGAGUCAUCAGAGUUUAUUAUAACUUAUUGUUCAUAUUCAUUUCUAAGUUAAUUUAAGUAAUCAUUUAUUAAGACAGUGGAAUUCUCGGGUGCCAA	0.466
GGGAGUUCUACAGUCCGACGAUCGUUGGUGAUUCAACUUGGGCUCCAAGACUUGGGUAAGCUCUGGGCCUUCACAGAAUGAUGGCACCUUCCUAAACCCUCAUGGGUGGUGUCUGAGAGGCGUGAAGGGCCUGUGGAAUUCUCGGGUGCCAA	0.421
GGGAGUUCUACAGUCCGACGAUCUUGGGAUUGUAGACAUGUGGGAGCUAUGACAGACGUGGCCUGGGGUAGAAAGAUCUCAGGAAAGCACCUUUCUCCUUUUCAGGGUGACCGUGCUCUUCACACUCUCUGAGUGGAAUUCUCGGGUGCCAA	0.445
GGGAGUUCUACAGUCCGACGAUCCAUCUCAGGGCCUCACUUUCUGCACACACCUCCCUGCCUGAGAGCAGACACAAACAGGCCCAUAGCCUCUCCUCUGCUGUUAGAGCAAUGCAGCUGGGCCCAGAACACCCUGGAAUUCUCGGGUGCCAA	0.341
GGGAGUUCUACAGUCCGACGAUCAUGGUUCUGAUGAUGAUUAUCCAACAAACAUCUGGCCCUCUCUACAUCUCUUCCCUCCAUCUCCUUGUACCCUCUGGCUUACUGUCCUCUCUCUGGCGCACUUUCCUGAAUGGAAUUCUCGGGUGCCAA	0.762
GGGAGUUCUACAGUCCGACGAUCCUUUGUCGGCGCUGAGGAACACUGCUUUUUCACAAAGUUCCCCCGGGAUAGAAUGGCUGUCCAGUCUAAGCUCAGGGCAGCCUCUUCAACCACUGUUGGCCCAGCCUGGCUGGAAUUCUCGGGUGCCAA	0.192
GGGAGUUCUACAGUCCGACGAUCCUUGAAUCCCCCGUAAACACCAGACGAUUGAGUCUACCUUCUUUUCUUGGCCACCUCCCCAUUCACAACUACUUUCUCGCUCCCAGAAGGUUGAUCAGAUAUUCUACAAUUGGAAUUCUCGGGUGCCAA	0.752

Set 2 — method: RNA Bind-n-Seq; form: RNA; medium: in vitro; tested at: not given; baseline: input RNA pool; direction: higher = stronger binding
Target: RING finger protein unkempt homolog, zinc fingers 1-6, GST-SBP tag (UNK, Homo sapiens, UniProt Q9C0B0, residues 30-357)
Setting: RNA with constant flanks, human-mouse chimeric sites, ends assumed
Target sequence (chain): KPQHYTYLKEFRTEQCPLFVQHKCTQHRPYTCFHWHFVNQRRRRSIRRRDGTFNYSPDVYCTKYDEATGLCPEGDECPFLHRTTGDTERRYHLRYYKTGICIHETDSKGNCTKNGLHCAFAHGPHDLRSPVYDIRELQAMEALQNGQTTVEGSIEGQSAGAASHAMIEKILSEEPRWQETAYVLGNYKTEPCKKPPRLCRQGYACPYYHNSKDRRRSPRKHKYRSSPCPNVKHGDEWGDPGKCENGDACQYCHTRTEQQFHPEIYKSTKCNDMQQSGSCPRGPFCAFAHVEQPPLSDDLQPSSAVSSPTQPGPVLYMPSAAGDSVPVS
Strand	bound/input enrichment [ratio]
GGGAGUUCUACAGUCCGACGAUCUAUAUCACCAAUGUCCUACAAAAUCCUGAUUUGGCUCUGAGAAUGGCUGUACGUAAUAACUUAGCUGGUGCUGAAGAACUCUUUGCCCGGAAAUUUAAUGCUCUCUUCGCCCAGGGAAACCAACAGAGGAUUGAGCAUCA	0.485
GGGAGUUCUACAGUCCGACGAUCAGAUUCCCCCUCCUGAGACCUCCUCCGAAGUUGGAGUCUCUUACAGAUGGUUCAUCUCCUGUUAGUAUUUUAGUUUGGACCACCCAGCCUUGGACAAUUCCCGCCAACCAGGCAAUUUGCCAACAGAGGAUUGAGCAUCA	9.8
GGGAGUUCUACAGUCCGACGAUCCCUGCUCAGAUCACCAUGAAAGUAAUCCAAGGCCUAUAUAGUGGGGUCACCACAGUGGAACUGGACACUUUGGCUGCUGAGACAGCCGCGACCUUGACCACGAAGCACCCUGACUAUGCCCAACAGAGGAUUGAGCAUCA	0.128
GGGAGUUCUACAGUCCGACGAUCCUCGGCACCGGCACGCUUUACAUCGCGGAGAGCCGCCUGUCCUGGUUAGAUGGCUCUGGAUUAGGAUUCUCACUGGAAUACCCCACCAUUAGUUUACAUGCGGUGUCCAGGGAUCCAAACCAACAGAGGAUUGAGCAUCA	0.327
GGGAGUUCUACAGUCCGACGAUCUUUGUAACUUAUCUGUAAGGUUCCCCCCCCCUACUGUCAAAAAAUAUGCAUGUAUAGUAAUUAGGACUUCAUUCCUCCAUGUUUUCUUCCCUUAUCUUACUGUCAUUGUCCUUAAACCUUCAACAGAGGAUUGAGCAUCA	2.11
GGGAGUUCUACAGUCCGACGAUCAGAGAAAUGAGAAAGAAUCUUACACAAGAAGAGAUGCAAAGAAUGUCUACUAGAGUCCUUUUGGCGACUCUUUCCAUCCCUAUUACUCCUGAGCGUACUGAUAUUGCUCGACUUUUGGAUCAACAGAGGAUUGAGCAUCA	0.0893

Set 3 — target: CCNB1, cyclin fold, Cln2 fusion (human); method: yeast growth competition, sequencing; medium: yeast; setting: weak parent motif; baseline: not given; direction: higher = stronger binding
Starting sequence: WEE1 docking peptide (human); HKTFRKLRLFDTP
Change	normalised enrichment score
F4G	0.299
L9G	1.02
L7W	0.401
D11W	0.298
K6M	-0.301
H1D	0.973
T12G	1.5

Further values, each from its own experiment
Molecule	target	assay	system	conditions	scale	endpoint	value
PhoQ, residues 284 288 289 292 302 303 SIHMAM	PhoP, residues 12 14 15 18 19 TQAIL (Escherichia coli, UniProt P23836)	Sort-seq, measured: YFP reporter	E. coli	PhoQ-PhoP variant library, added: 10 µM Mg2+	baseline: high Mg2+ state, higher = stronger signaling	fold induction	11.8

Repeated from above (set 3):
Change	normalised enrichment score
D11W	0.298
F4G	0.299
